{"data": "Results of several laboratories", "note": "Each line is one published result; not all experiments were run side by side. ± marks the error that the study gave."}
{"Structure (SMILES)": "CCCC[C@H](NC(=O)CNC(=O)CNC(=O)CN1CCN(CC(=O)O)CCN(CC(=O)O)CCN(CC(=O)O)CC1)C(=O)N[C@H]1CC(=O)NCCCC[C@@H](C(N)=O)NC(=O)[C@H](Cc2c[nH]c3ccccc23)NC(=O)[C@H](CCCNC(=N)N)NC(=O)[C@@H](Cc2ccccc2)NC(=O)[C@H](Cc2c[nH]cn2)NC1=O [gallium-67 labelled]", "system": "C57 mice, female, B16/F1 melanoma, tumour over blood", "setting": "intravenous, 0.037 MBq, 24 h", "endpoint": "tumour to tissue uptake ratio", "result": 25.6}
{"Structure (SMILES)": "Cc1ccc(OCC(=O)O)cc1", "system": "Sprague-Dawley rat, female, plasma", "setting": "oral gavage, 10 mg/kg of parent drug", "endpoint": "AUC(0-last)", "result": "7700 ± 1440 ng·h/mL"}
{"Structure (SMILES)": "COc1ccc2cc(-c3ccc(-c4ccc(C)cn4)nc3)oc2c1", "system": "aqueous HEPES buffer", "setting": "pH 7.4, zinc-free ligand, together with: quinine bisulfate reference", "endpoint": "fluorescence quantum yield", "result": 0.25}
{"Structure (SMILES)": "COc1cc(CCC(C)=O)ccc1O", "target or system": "mAb 5-3H1", "test": "antibody binding, indirect competitive ELISA", "setting": "together with: coating antigen 2-OVA", "endpoint": "IC50", "result": "> 4 µg/mL"}
{"Structure (SMILES)": "OC1(C(F)(F)F)CCN(c2nc(Nc3ccnc(C(F)(F)F)c3)nc(-c3cccc(C(F)(F)F)n3)n2)C1 (stereo not drawn)", "system": "Sprague-Dawley rat, both sexes", "setting": "oral, 10.1 mg/kg", "how to read": "reference: total drug", "endpoint": "unchanged drug in excreta", "result": "~50%"}
{"Structure (SMILES)": "CN(C)CCNC(=O)/C=C/C(Cc1ccccc1)Nc1ccnc2cc(Cl)ccc12 (stereo not drawn)", "system": "ICR mouse healthy, plasma", "setting": "oral, 5 mg/kg", "endpoint": "AUC", "result": "148 ng·h/mL"}
{"Structure (SMILES)": "Cc1ncc2c(n1)CN(C(=O)Nc1nc(-c3cccs3)ccc1N)C2", "system": "male beagle dog, plasma", "setting": "oral, 45 mg/kg, multiple doses, once daily", "endpoint": "AUC", "result": "11500 ng·h/mL"}
{"Structure (SMILES)": "[64Cu+2].c1ccc(CNCc2ccc(CN3CCCN4CCNCCCN(CC4)CC3)cc2)nc1", "target or system": "CXCR4", "system": "NOD/SCID mouse, U87 and U87-stb-CXCR4 xenografts, bladder", "setting": "iv, 90 min, ex vivo", "endpoint": "tissue uptake", "result": "4.14 ± 4.78 %ID/g"}
{"Structure (SMILES)": "O=C1CCN(Cc2ccccc2)CC1C(C[N+](=O)[O-])c1ccccc1 (stereo not drawn)", "test": "tail immersion test", "system": "BALB/c mice", "setting": "ip, 25 mg/kg, 0.5 h", "endpoint": "tail flick response", "result": "19.3%"}
{"Structure (SMILES)": "CCCC[C@@H]1NC(=O)[C@@H](NC(=O)[C@H](CCC(=O)O)NC(=O)CNC(=O)CN2CCN(CC(=O)O)CCN(CC(=O)O)CCN(CC(=O)O)CC2)CCCCNC(=O)C[C@@H](C(N)=O)NC(=O)[C@H](C(C)C)NC(=O)[C@@H]2CCCN2C(=O)[C@H](CCCNC(=N)N)NC(=O)CNC(=O)[C@H](Cc2c[nH]c3ccccc23)NC(=O)[C@H](CCCNC(=N)N)NC(=O)[C@@H](Cc2ccccc2)NC(=O)[C@H](Cc2c[nH]cn2)NC(=O)[C@H](CCC(=O)O)NC1=O [gallium-67 labelled]", "system": "C57 mice, B16/F10 lung metastases, muscle", "setting": "intravenous, 0.037 MBq/mouse, 2 h", "endpoint": "tissue uptake", "result": "0.07 ± 0.01 %ID/g"}
{"Structure (SMILES)": "C#CCOc1ccc(/C=C2\\SC(=O)N(CC(=O)NCc3ccccc3)C2=O)cc1", "test": "inverse Kirkwood-Buff integrals", "system": "binary solvent mixture", "setting": "298.15 K, mole fraction x1 0.45", "endpoint": "Kirkwood-Buff integral G1,3", "result": "-262 cm³/mol"}
{"Structure (SMILES)": "CC(C)(Sc1ccncc1-c1ccc(C#N)c2ccccc12)C(=O)OC1OC(C(=O)O)C(O)C(O)C1O (stereo not drawn)", "system": "plasma", "setting": "oral, 15 mg, moderate renal impairment, fasted", "endpoint": "terminal half-life", "result": "1250 min"}
{"Structure (SMILES)": "C=C(c1cc(F)c(C(=O)O)c(F)c1)c1cc2c(cc1C)C(C)(C)CCC2(C)C", "system": "Sprague-Dawley rat, male, plasma", "setting": "oral, 100 mg/kg, 2 h, sesame oil vehicle", "endpoint": "HDL level", "result": "67 ± 3.5 mg/dL"}
{"Structure (SMILES)": "CC(C)C(=O)NC1CC=C(c2cc3c(Nc4ccc5scnc5c4)ncnc3s2)CC1 (stereo not drawn)", "system": "BALB/c mouse, plasma", "setting": "oral, 10 mg/kg, 2 h", "endpoint": "concentration", "result": "125 ng/mL"}
{"Structure (SMILES)": "COCCOCCOCCOCCOCCOCCOCCOCCOCCOCCOCCOCCNC(=O)CCC1(Cc2ccccc2)c2ccccc2-c2ccc(-c3sc(-c4c5c(c(-c6sc(-c7ccc8c(c7)C(CCC(=O)NCCOCCOCCOCCOCCOCCOCCOCCOCCOCCOCCOCCOC)(Cc7ccccc7)c7ccccc7-8)c7c6OCCO7)c6nsnc46)N=S=N5)c4c3OCCO4)cc21 (stereo not drawn)", "test": "NIR-II fluorescence", "system": "KM mice, female, whole blood", "setting": "intravenous, 15 mg/kg", "endpoint": "blood half-life", "result": "54 min"}
{"Structure (SMILES)": "Cc1cccc(-c2cccc(C)n2)n1.Cc1cccc(-c2cccc(C)n2)n1.[Cl-].[Cl-].[Ru+2].c1ccc(-c2ccnc3c2ccc2c(-c4ccccc4)ccnc23)cc1", "test": "UV/Vis", "system": "PBS", "setting": "concentration not given", "endpoint": "photoactivation half-life", "result": "0.595 ± 0.025 min"}
{"Structure (SMILES)": "CC12N3Cc4c(OCCCS(=O)(=O)[O-])ccc(OCCCS(=O)(=O)[O-])c4CN1C(=O)N1CN4C(=O)N5CN6C(=O)N7Cc8c(OCCCS(=O)(=O)[O-])ccc(OCCCS(=O)(=O)[O-])c8CN8C(=O)N(CN9C(=O)N(CN(C3=O)C12C)C4C95)C6(C)C87C.[Na+].[Na+].[Na+].[Na+] (stereo not drawn)", "setting": "pD 7.4, together with: camptothecin", "endpoint": "phase solubility slope", "result": "0.045 ± 0.0051"}
{"Structure (SMILES)": "CC(C)(O)c1ncc([S@](N)(=O)=NC(=O)Nc2c3c(cc4c2CCC4)CCC3)s1", "system": "healthy human, fasted", "setting": "oral, 100 mg single dose, spray-dried dispersion", "endpoint": "Cmax", "result": "11200 ng/mL"}
{"note": "Excerpt of the above:"}
{"Structure (SMILES)": "CC(C)C(=O)NC1CC=C(c2cc3c(Nc4ccc5scnc5c4)ncnc3s2)CC1 (stereo not drawn)", "system": "BALB/c mouse, plasma", "setting": "oral, 10 mg/kg, 2 h", "endpoint": "concentration", "result": "125 ng/mL"}
{"Structure (SMILES)": "COCCOCCOCCOCCOCCOCCOCCOCCOCCOCCOCCOCCNC(=O)CCC1(Cc2ccccc2)c2ccccc2-c2ccc(-c3sc(-c4c5c(c(-c6sc(-c7ccc8c(c7)C(CCC(=O)NCCOCCOCCOCCOCCOCCOCCOCCOCCOCCOCCOCCOC)(Cc7ccccc7)c7ccccc7-8)c7c6OCCO7)c6nsnc46)N=S=N5)c4c3OCCO4)cc21 (stereo not drawn)", "test": "NIR-II fluorescence", "system": "KM mice, female, whole blood", "setting": "intravenous, 15 mg/kg", "endpoint": "blood half-life", "result": "54 min"}
